Published values collected from several papers.
Compare with care: the assays were run in different laboratories.
Target: Mitogen-activated protein kinase kinase kinase kinase 1 (MAP4K1, Homo sapiens, UniProt Q92918)

`CN1CCN(Cc2ccc(-c3ccc(CO[C@H]4CCC[C@@H]4NC(=O)c4cc(-c5cnn(C)c5)cnc4N)cc3)cc2)CC1` has an inhibition of 13% (enzyme activity, inhibitor; 0.1 µM).
`COc1cc(-n2cc3cc(F)cc(C(N)=O)c3n2)cc(Cl)c1C1CC(O)(CCO)Cc2ccccc21` (stereo not shown) gave an inhibition of 6.69% (enzyme activity, inhibitor; 10 µM).
`CNC(=O)C[C@H](Cc1ccc(C#N)cc1)NC(=O)c1cc(-c2ccc(CN[C@H](C)c3ccc(C)cc3)o2)ccc1Cl`: “activity vs control” 106% (enzyme activity, inhibitor; 1 µM).
For `NC(=O)[C@@H](O)C[C@H]1CCc2sc3ncnc(O[C@H]4CC[C@H](N5CCOCC5)CC4)c3c21`, the inhibition was 17% (enzyme activity, inhibitor; 10 µM).
With `CCN1CCN(Cc2ccc(NC(=O)c3ccc(C)c(NC(=O)c4cncc(-c5cccs5)c4)c3)cc2C(F)(F)F)CC1` the remaining binding was 7.6% (binding, competition with immobilised ligand; 1 µM).
With `COc1c(Cl)cccc1Nc1c(-c2ccncc2C#C[C@@]2(C)CCCN2C(=O)/C=C/CN(C)C)[nH]c2c1C(=O)NCC2` the remaining binding was 100% (binding, competition with immobilised ligand; 3 µM).
`COc1ccc(O)cc1-c1c[nH]c2ncc(-c3cncc(C(=O)N(C)C)c3)cc12` has an inhibition of 43.2% (binding, competition with immobilised ligand; 0.2 µM).
`CC(C)=CC1OC(C)(C)C2C=C3C(=O)C(Cl)=CC(O)C3C3C(O)C4OC4C(=O)C132` (stereo not shown) gave a remaining binding of 79% (cell-free assay, competition with immobilised ligand; 10 µM).
For `CNC1C[S+]2CC[S+]3CC[S+](C1)[Ru-4]321([N]=C=S)[n]2c3ccc(OC)cc3c3c4c(c5cc(F)c[n+]1c5c32)C(=O)NC4=O` (stereo not shown), the remaining binding was 94% (KinomeScan; 0.1 µM; relative to: untreated).
`COc1cc(Nc2nc(C)cc(-c3cnn4nc(OC)ccc34)n2)cc(C(F)(F)F)c1` has a remaining activity of 86% (inhibitor; 1 µM, HPK1; relative to: control).
`Nc1ncc(-c2cc(-c3cnn(CC(F)(F)F)c3)ncc2F)nc1C(=O)NC1CNCC(F)C1` (stereo not shown) gave a remaining activity of 80.8% (enzyme activity; 1 µM; relative to: DMSO control).
`Cc1cnc2nc1Nc1cccc(c1)COC/C=C/COCc1cc(ccc1OCCN1CCOCC1)N2` has a remaining binding of 100% (binding, competition with immobilised ligand; 0.1 µM).
`CCN1CCN(Cc2ccc(C(=O)Nc3ccc(C)c(NCc4cnc5[nH]ccc5c4OC)c3)cc2C(F)(F)F)CC1` gave a remaining binding of 2.8% (binding, competition with immobilised ligand; 1 µM).

For quick reference, copied from above:
`COc1cc(-n2cc3cc(F)cc(C(N)=O)c3n2)cc(Cl)c1C1CC(O)(CCO)Cc2ccccc21` (stereo not shown) gave an inhibition of 6.69% (enzyme activity, inhibitor; 10 µM).
`CNC(=O)C[C@H](Cc1ccc(C#N)cc1)NC(=O)c1cc(-c2ccc(CN[C@H](C)c3ccc(C)cc3)o2)ccc1Cl`: “activity vs control” 106% (enzyme activity, inhibitor; 1 µM).
